Measured values collected from several papers.
Lines come from different studies, so protocols differ. Numbers after ± are the reported error.
Genome polyprotein NS2B-NS3 protease: Genome polyprotein, NS2B-NS3 protease (Dengue virus type 2, UniProt P14340)
KDM1A with CoREST: Lysine-specific histone demethylase 1A, with CoREST (KDM1A, Homo sapiens, UniProt O60341)
gag-pol integrase: Gag-Pol polyprotein, integrase (gag-pol, Human immunodeficiency virus type 1 group M subtype B, UniProt P04585)
Aldo-keto reductase family 1 member B1: Aldo-keto reductase family 1 member B1 (Bos taurus, UniProt P16116)
CHRM1: Muscarinic acetylcholine receptor M1 (CHRM1, Homo sapiens, UniProt P11229)
PPO3: PPO3 (Agaricus bisporus, UniProt C7FF04)
IDO1: Indoleamine 2,3-dioxygenase 1 (IDO1, Homo sapiens, UniProt P14902)
SCN10A: Sodium channel protein type 10 subunit alpha (SCN10A, Homo sapiens, UniProt Q9Y5Y9)

SMILES = COc1ccc(C(=O)CN2CC(=Cc3ccccc3C)C(=O)C(=Cc3ccccc3C)C2)cc1; target = Genome polyprotein NS2B-NS3 protease; test = protease activity; test system = dengue virus 2; setting = 50 µM; measurement = inhibition; result = < 10%
SMILES = CSCC[C@H](NC(=O)[C@@H](NC(=O)[C@H](C)NC(=O)[C@H](C)N)[C@@H](C)O)C(=O)N[C@H]1CCCCNC(=O)CC[C@@H](C(=O)N[C@H](C(=O)NCC(=O)NCC(=O)N[C@@H](CCCCN)C(=O)N[C@@H](C)C(=O)N2CCC[C@H]2C(=O)N[C@@H](CCCNC(=N)N)C(=O)N[C@@H](CCCCN)C(=O)N[C@@H](CCC(N)=O)C(=O)N[C@@H](CC(C)C)C(=O)N[C@@H](C)C(=O)O)[C@@H](C)O)NC(=O)[C@H](CCCCN)NC(=O)[C@H](CCCNC(=N)N)NC(=O)[C@H](C)NC(=O)[C@H]([C@@H](C)O)NC1=O; target = KDM1A with CoREST; test = demethylase activity, fluorescence; setting = 500 nM; measurement = inhibition; result = 25 ± 8%
SMILES = COc1ccc(-c2ccc3c(-c4ccc(F)cc4F)cn(C)c3n2)cc1; target = gag-pol integrase; test = strand transfer; test system = wild type; setting = 10 µM; measurement = inhibition; result = 71.6%
SMILES = COc1cccc(CNC(=O)c2cnn(Cc3ccc(Cn4ccccc4=O)cc3)c2)c1; target = Plasma kallikrein (KLKB1, Homo sapiens, UniProt P03952); test = enzyme activity, inhibitor; setting = 0.1 µM; measurement = inhibition; result = > 30%
SMILES = COc1cccc(-n2c(-c3ccc(Cl)cc3)cs/c2=N/N=C(/C)c2ccc3c(c2)NC(=O)CO3)c1; target = Aldo-keto reductase family 1 member B1; test = enzyme activity, inhibitor, absorbance; setting = 1 mM; measurement = inhibition; result = 5.16%
SMILES = NC(=O)c1ccc(COc2ccccc2-c2cc(=O)n(C3CCCCC3O)cn2)cc1 (stereo not drawn); target = CHRM1; test = allosteric agonist, IP1 accumulation; test system = CHO-M1 cells; setting = 10 µM, unit not given; how to read = baseline: maximum ACh response; measurement = change in baseline activity; result = 80.5 ± 4.1
SMILES = COc1ccc(/C=C2\OC(=S)N(c3ccccc3)C2=O)c(OC)c1; target = PPO3; test = enzyme activity, inhibitor; setting = 25 µM; measurement = inhibition; result = 4.09%
SMILES = CC(C)(C)c1cnc(CSc2cnc(NC(=O)C3CCN(CC(=O)NCCOCCOCCOCCNc4cccc5c4C(=O)N(C4CCC(=O)NC4=O)C5=O)CC3)s2)o1 (stereo not drawn); target = GSK3A (Homo sapiens, UniProt P49840); test = probe labeling, KiNativ live-cell profiling; test system = MOLT-4; setting = 0.25 µM; measurement = inhibition; result = 41.3%
SMILES = O=C1C(=Cc2ccc(F)cc2)CN(CC(=O)c2ccc(F)cc2)CC1=Cc1ccc(F)cc1; target = Genome polyprotein NS2B-NS3 protease; test = protease activity; test system = dengue virus 2; setting = 50 µM; measurement = inhibition; result = < 10%
SMILES = COc1cc(/C=C2\OC(=S)N(c3ccccc3)C2=O)cc(OC)c1O; target = PPO3; test = enzyme activity, inhibitor; setting = 25 µM; measurement = inhibition; result = 10.2%
SMILES = C/C(=N/N=c1/scc(-c2ccc([N+](=O)[O-])cc2)n1-c1ccccc1)c1ccc2c(c1)NC(=O)CO2; target = Aldo-keto reductase family 1 member B1; test = enzyme activity, inhibitor, absorbance; setting = 1 mM; measurement = inhibition; result = 20.8%
SMILES = O=C1/C(=C/c2ccccc2O)OC(=S)N1c1ccccc1; target = PPO3; test = enzyme activity, inhibitor; setting = 25 µM, with: L-tyrosine; measurement = inhibition; result = 71%
SMILES = CCCn1cc(-c2ccc(COc3ccccc3-c3cc(=O)n(C4CCCCC4O)cn3)cc2)cn1 (stereo not drawn); target = CHRM1; test = allosteric agonist, IP1 accumulation; test system = CHO-M1 cells; setting = 10 µM, unit not given; how to read = baseline: maximum ACh response; measurement = change in baseline activity; result = 72.7 ± 3
SMILES = COc1cc(C)c(C(=O)NCc2nnc3ccc(C(F)(F)F)cn23)c(C)c1; target = IDO1; test = kynurenine production, inhibitor, measured: L-kynurenine; test system = A-375; setting = 10 µM, 48 h, with: IFN-γ; measurement = inhibition; result = 43 ± 10%
SMILES = COc1ccc(C(=O)CN2CC(=Cc3ccc(F)cc3)C(=O)C(=Cc3ccc(F)cc3)C2)cc1; target = Genome polyprotein NS2B-NS3 protease; test = protease activity; test system = dengue virus 2; setting = 50 µM; measurement = inhibition; result = < 10%
SMILES = C=CCc1cccc(/C=N/C23CC4CC(CC(C4)C2)C3)c1O; target = alkaline phosphatase; test = enzyme activity; test system = human serum; setting = concentration not given, with: p-nitrophenyl phosphate; measurement = inhibition; result = inactive
SMILES = CSCC[C@H](NC(=O)[C@@H](NC(=O)[C@H](CCCNC(=N)N)NC(=O)[C@H](C)N)[C@@H](C)O)C(=O)N[C@H]1CCCCNC(=O)CC[C@@H](C(=O)N[C@H](C(=O)NCC(=O)NCC(=O)N[C@@H](CCCCN)C(=O)N[C@@H](C)C(=O)N2CCC[C@H]2C(=O)N[C@@H](CCCNC(=N)N)C(=O)N[C@@H](CCCCN)C(=O)N[C@@H](CCC(N)=O)C(=O)N[C@@H](CC(C)C)C(=O)N[C@@H](C)C(=O)O)[C@@H](C)O)NC(=O)[C@H](CCCCN)NC(=O)[C@H](C)NC(=O)[C@H](C)NC(=O)[C@H]([C@@H](C)O)NC1=O; target = KDM1A with CoREST; test = demethylase activity, fluorescence; setting = 500 nM; measurement = inhibition; result = 0%
SMILES = CCSc1ccc2c(c1)N(CCCN1CCN(C)CC1)c1ccccc1S2.O=C(O)CC(O)C(=O)O.O=C(O)CC(O)C(=O)O; target = SCN10A; test = sodium influx, inhibitor, FLIPR; test system = HEK293; setting = 10 µM, with: deltamethrin 10 µM; measurement = inhibition; result = 86.6%
SMILES = O=C(NCc1nnc2ccc3ccccc3n12)c1cccc2cn[nH]c12; target = IDO1; test = kynurenine production, inhibitor, measured: L-kynurenine; test system = A-375; setting = 10 µM, 48 h, with: IFN-γ; measurement = inhibition; result = > 50%
SMILES = C/C(=N/N=c1/scc(-c2ccc(Br)cc2)n1-c1ccccc1C)c1ccc2c(c1)NC(=O)CO2; target = Aldo-keto reductase family 1 member B1; test = enzyme activity, inhibitor, absorbance; setting = 1 mM; measurement = inhibition; result = 19.5%
SMILES = O=C(NCc1nnc2ccc(C(F)(F)F)cn12)c1cc(-c2ccc(F)cc2)ccc1F; target = IDO1; test = kynurenine production, inhibitor, measured: L-kynurenine; test system = A-375; setting = 10 µM, 48 h, with: IFN-γ; measurement = inhibition; result = 29 ± 2%
SMILES = CCN(CC)Cc1cc(Nc2ccnc3cc(Cl)ccc23)ccc1O.Cl.Cl.O.O; target = SCN10A; test = sodium influx, inhibitor, FLIPR; test system = HEK293; setting = 10 µM, with: deltamethrin 10 µM; measurement = inhibition; result = 89.6%
SMILES = Cc1cccc(C)c1-n1c(-c2ccc(Cl)cc2)cs/c1=N/N=C\c1c[nH]c2ccccc12; target = Aldo-keto reductase family 1 member B1; test = enzyme activity, inhibitor, absorbance; setting = 1 mM; measurement = inhibition; result = < 50%
SMILES = CC(C)(C)NCC(O)c1cc(O)cc(O)c1.CC(C)(C)NCC(O)c1cc(O)cc(O)c1.O=S(=O)(O)O (stereo not drawn); target = SCN10A; test = sodium influx, inhibitor, FLIPR; test system = HEK293; setting = 10 µM, with: deltamethrin 10 µM; measurement = inhibition; result = 90.6%
SMILES = O=C1/C(=C/c2cc(Br)c(O)c(Br)c2)OC(=S)N1c1ccccc1; target = PPO3; test = enzyme activity, inhibitor; setting = 25 µM, with: L-tyrosine; measurement = inhibition; result = < 0%
SMILES = O=C(NCc1nnc2ccc(C(F)(F)F)cn12)c1cc(Br)c(O)cc1O; target = IDO1; test = kynurenine production, inhibitor, measured: L-kynurenine; test system = A-375; setting = 10 µM, 48 h, with: IFN-γ; measurement = inhibition; result = 32 ± 7%
SMILES = C[N+]1(CCCCC[N+]2(C)CCCC2)CCCC1.O=C([O-])C(O)C(O)C(=O)O.O=C([O-])C(O)C(O)C(=O)O; target = SCN10A; test = sodium influx, inhibitor, FLIPR; test system = HEK293; setting = 10 µM, with: deltamethrin 10 µM; measurement = inhibition; result = 85.6%
SMILES = O=C(NCc1nnc2ccc(C(F)(F)F)cn12)c1ccc(O)c(Br)c1; target = IDO1; test = kynurenine production, inhibitor, measured: L-kynurenine; test system = A-375; setting = 10 µM, 48 h, with: IFN-γ; measurement = inhibition; result = 40 ± 8%
SMILES = Cc1nc2sccn2c(=O)c1CCN1CCC(=C(c2ccccc2)c2ccc(F)cc2)CC1; target = HTR7 (Homo sapiens, UniProt P34969); test = agonist response, antagonist; setting = 10 µM, with: reference agonist at EC90; measurement = inhibition; result = 99.5%
SMILES = COc1cc(C)c(C(=O)NCc2nnc3ccc4ccccc4n23)c(C)c1; target = IDO1; test = kynurenine production, inhibitor, measured: L-kynurenine; test system = A-375; setting = 10 µM, 48 h, with: IFN-γ; measurement = inhibition; result = > 50%
SMILES = Ic1ccccc1C(Nc1nccs1)(c1ccccc1)c1ccccc1; target = Gap junction beta-1 protein (Gjb1, Rattus norvegicus, UniProt P08033); test = gap junction channel current, inhibitor, dual whole-cell voltage clamp; test system = N2a; setting = 10 µM; measurement = inhibition; result = < 20%
SMILES = O=C(N[C@@H](Cn1ccnc1)c1c(F)cc(-c2ccc(F)cc2)cc1F)c1ccc(-c2nnc(-c3ccccc3)o2)cc1; target = CYP51 (Trypanosoma cruzi, UniProt Q7Z1V1); test = enzyme activity, inhibitor; setting = 1 µM, 1 h, equimolar inhibitor/enzyme, with: eburicol 50 µM; measurement = inhibition; result = inhibited
SMILES = O=C1NCN(c2ccccc2)C12CCN(CCCC(c1ccc(F)cc1)c1ccc(F)cc1)CC2; target = SCN10A; test = sodium influx, inhibitor, FLIPR; test system = HEK293; setting = 10 µM, with: deltamethrin 10 µM; measurement = inhibition; result = 100%
SMILES = C/C(=N/N=c1/scc(-c2ccc([N+](=O)[O-])cc2)n1Cc1ccccc1)c1ccc2c(c1)OCCO2; target = Aldo-keto reductase family 1 member B1; test = enzyme activity, inhibitor, absorbance; setting = 1 mM; measurement = inhibition; result = 14%
SMILES = O=C1/C(=C/c2ccc(F)cc2F)OC(=S)N1c1ccccc1; target = PPO3; test = enzyme activity, inhibitor; setting = 25 µM, with: L-tyrosine; measurement = inhibition; result = < 0%
SMILES = Cn1cc(-c2ccc3c(c2)OCO3)c2ccc(Cl)nc21; target = gag-pol integrase; test = strand transfer; test system = wild type; setting = 10 µM; measurement = inhibition; result = 54%
SMILES = O=C(O[C@@H]1Cc2c(O)cc(O)cc2O[C@@H]1c1ccc(O)c(O)c1)c1cc(O)c(O)c(O)c1; target = Myocilin, OLF domain (Homo sapiens, UniProt Q99972); test = amyloid fibrillation, thioflavin T; setting = 75 µM, pH 7.2, 37 °C, with: olfactomedin domain 15 µM; measurement = inhibition; result = ~65%
SMILES = COc1ccc(/C=C2\OC(=S)N(c3ccccc3)C2=O)cc1; target = PPO3; test = enzyme activity, inhibitor; setting = 25 µM, with: L-tyrosine; measurement = inhibition; result = < 0%
SMILES = COc1ccccc1Cn1cc(COC(=O)NC2CCCCC2)nn1; target = Faah (Mus musculus, UniProt O08914); test = enzyme activity; test system = CD1 mice, brain, ex vivo; setting = intraperitoneal, 3 mg/kg, 1 h; how to read = baseline: vehicle; measurement = inhibition; result = 78%

Excerpt of the above:
SMILES = CCN(CC)Cc1cc(Nc2ccnc3cc(Cl)ccc23)ccc1O.Cl.Cl.O.O; target = SCN10A; test = sodium influx, inhibitor, FLIPR; test system = HEK293; setting = 10 µM, with: deltamethrin 10 µM; measurement = inhibition; result = 89.6%
SMILES = Cc1cccc(C)c1-n1c(-c2ccc(Cl)cc2)cs/c1=N/N=C\c1c[nH]c2ccccc12; target = Aldo-keto reductase family 1 member B1; test = enzyme activity, inhibitor, absorbance; setting = 1 mM; measurement = inhibition; result = < 50%
SMILES = CC(C)(C)NCC(O)c1cc(O)cc(O)c1.CC(C)(C)NCC(O)c1cc(O)cc(O)c1.O=S(=O)(O)O (stereo not drawn); target = SCN10A; test = sodium influx, inhibitor, FLIPR; test system = HEK293; setting = 10 µM, with: deltamethrin 10 µM; measurement = inhibition; result = 90.6%
SMILES = O=C1/C(=C/c2cc(Br)c(O)c(Br)c2)OC(=S)N1c1ccccc1; target = PPO3; test = enzyme activity, inhibitor; setting = 25 µM, with: L-tyrosine; measurement = inhibition; result = < 0%
SMILES = O=C(NCc1nnc2ccc(C(F)(F)F)cn12)c1cc(Br)c(O)cc1O; target = IDO1; test = kynurenine production, inhibitor, measured: L-kynurenine; test system = A-375; setting = 10 µM, 48 h, with: IFN-γ; measurement = inhibition; result = 32 ± 7%
SMILES = C[N+]1(CCCCC[N+]2(C)CCCC2)CCCC1.O=C([O-])C(O)C(O)C(=O)O.O=C([O-])C(O)C(O)C(=O)O; target = SCN10A; test = sodium influx, inhibitor, FLIPR; test system = HEK293; setting = 10 µM, with: deltamethrin 10 µM; measurement = inhibition; result = 85.6%
